Published values of several laboratories.
A part holds a random share of what one study measured.
Chain of UniProt P42336 (whole entry, unmodified, looked up): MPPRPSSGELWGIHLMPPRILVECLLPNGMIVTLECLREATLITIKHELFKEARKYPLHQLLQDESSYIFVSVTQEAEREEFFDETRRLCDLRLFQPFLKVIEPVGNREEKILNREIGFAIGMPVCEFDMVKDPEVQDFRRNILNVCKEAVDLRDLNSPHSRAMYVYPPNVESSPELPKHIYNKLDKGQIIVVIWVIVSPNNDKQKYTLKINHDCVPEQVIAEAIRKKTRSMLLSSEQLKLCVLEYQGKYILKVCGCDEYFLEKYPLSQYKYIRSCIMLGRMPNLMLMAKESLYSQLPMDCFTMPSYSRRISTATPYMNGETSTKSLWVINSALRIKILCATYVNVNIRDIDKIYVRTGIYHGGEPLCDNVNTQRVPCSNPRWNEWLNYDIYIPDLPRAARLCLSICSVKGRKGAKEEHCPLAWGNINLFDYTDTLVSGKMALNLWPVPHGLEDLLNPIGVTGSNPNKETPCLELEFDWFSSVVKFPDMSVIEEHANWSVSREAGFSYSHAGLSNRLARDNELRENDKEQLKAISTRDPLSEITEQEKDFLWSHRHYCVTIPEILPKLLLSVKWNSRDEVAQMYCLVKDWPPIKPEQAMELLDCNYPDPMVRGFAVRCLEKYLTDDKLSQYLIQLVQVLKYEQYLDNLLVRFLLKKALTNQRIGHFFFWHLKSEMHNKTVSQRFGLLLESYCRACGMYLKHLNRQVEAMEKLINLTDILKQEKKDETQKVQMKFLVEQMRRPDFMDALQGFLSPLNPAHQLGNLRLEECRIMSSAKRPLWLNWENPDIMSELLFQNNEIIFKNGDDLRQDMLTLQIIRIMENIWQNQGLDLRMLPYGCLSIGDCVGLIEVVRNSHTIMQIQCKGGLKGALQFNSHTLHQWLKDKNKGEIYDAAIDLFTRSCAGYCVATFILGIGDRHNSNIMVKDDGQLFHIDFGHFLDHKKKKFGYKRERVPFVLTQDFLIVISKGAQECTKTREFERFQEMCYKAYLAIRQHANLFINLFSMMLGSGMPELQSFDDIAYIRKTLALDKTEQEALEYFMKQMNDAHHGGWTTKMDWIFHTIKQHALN
Chain of UniProt Q9NSY1 (whole entry, looked up): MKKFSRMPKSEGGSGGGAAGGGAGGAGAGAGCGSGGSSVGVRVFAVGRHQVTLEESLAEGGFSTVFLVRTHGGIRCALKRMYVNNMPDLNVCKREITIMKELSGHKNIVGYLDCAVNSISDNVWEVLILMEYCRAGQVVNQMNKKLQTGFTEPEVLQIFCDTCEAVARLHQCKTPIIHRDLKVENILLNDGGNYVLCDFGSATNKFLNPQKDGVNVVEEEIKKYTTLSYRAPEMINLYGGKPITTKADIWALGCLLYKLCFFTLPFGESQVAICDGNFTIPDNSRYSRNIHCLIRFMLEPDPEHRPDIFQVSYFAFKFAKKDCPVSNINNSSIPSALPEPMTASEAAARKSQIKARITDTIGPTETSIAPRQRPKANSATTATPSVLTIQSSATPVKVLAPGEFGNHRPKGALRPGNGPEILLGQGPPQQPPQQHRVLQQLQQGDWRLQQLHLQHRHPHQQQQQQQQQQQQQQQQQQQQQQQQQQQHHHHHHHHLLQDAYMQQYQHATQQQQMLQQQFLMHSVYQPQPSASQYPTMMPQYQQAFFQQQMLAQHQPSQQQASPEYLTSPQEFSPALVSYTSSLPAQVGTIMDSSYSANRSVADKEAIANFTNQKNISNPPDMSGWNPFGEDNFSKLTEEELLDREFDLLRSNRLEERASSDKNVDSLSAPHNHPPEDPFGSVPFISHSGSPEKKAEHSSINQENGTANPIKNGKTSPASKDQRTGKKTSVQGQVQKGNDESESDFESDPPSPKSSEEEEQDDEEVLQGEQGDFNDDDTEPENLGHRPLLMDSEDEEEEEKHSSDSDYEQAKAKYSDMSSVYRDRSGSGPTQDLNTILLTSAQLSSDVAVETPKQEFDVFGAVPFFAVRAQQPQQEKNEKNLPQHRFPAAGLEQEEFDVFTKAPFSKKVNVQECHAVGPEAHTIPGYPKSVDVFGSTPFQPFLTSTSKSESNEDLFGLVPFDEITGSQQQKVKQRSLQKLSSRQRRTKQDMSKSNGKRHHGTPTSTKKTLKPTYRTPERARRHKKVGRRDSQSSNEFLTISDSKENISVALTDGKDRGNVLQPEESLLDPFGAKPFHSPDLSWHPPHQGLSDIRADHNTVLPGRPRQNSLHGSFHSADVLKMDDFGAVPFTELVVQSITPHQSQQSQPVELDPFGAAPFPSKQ
Chain of UniProt P42679 (whole entry, looked up): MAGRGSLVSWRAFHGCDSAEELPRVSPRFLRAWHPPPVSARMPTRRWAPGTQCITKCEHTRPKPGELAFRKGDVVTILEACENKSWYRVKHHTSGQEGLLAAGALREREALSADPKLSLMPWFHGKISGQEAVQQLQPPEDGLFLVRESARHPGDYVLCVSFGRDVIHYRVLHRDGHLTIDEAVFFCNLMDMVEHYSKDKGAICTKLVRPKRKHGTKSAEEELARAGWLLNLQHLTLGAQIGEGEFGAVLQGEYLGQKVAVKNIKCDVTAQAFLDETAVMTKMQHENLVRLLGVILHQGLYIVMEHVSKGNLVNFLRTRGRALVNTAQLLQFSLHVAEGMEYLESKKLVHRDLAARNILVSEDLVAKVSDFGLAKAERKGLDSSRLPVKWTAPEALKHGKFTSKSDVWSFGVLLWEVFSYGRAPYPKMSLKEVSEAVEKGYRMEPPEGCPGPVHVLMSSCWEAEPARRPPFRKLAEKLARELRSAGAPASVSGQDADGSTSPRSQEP
Chain of UniProt P27448 (whole entry, looked up): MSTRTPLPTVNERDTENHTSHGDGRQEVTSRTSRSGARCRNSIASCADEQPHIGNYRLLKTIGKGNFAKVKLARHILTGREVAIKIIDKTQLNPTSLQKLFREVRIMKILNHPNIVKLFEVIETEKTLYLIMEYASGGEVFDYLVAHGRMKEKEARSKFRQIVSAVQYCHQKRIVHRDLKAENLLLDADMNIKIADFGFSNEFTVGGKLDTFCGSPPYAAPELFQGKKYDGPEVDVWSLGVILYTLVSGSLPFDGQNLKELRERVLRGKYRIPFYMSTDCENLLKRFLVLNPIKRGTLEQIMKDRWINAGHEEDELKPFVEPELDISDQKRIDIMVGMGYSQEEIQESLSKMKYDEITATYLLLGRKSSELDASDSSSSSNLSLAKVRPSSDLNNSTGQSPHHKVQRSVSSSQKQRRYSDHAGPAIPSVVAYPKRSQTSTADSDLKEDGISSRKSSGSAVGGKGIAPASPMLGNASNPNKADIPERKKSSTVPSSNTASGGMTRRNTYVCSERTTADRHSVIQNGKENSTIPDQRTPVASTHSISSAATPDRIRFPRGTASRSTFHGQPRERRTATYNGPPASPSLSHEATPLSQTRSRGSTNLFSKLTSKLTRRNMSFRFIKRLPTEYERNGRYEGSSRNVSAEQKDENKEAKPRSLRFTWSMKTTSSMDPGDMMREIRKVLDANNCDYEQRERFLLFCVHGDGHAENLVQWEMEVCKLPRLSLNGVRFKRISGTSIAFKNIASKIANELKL
Chain of UniProt P50750 (whole entry, looked up): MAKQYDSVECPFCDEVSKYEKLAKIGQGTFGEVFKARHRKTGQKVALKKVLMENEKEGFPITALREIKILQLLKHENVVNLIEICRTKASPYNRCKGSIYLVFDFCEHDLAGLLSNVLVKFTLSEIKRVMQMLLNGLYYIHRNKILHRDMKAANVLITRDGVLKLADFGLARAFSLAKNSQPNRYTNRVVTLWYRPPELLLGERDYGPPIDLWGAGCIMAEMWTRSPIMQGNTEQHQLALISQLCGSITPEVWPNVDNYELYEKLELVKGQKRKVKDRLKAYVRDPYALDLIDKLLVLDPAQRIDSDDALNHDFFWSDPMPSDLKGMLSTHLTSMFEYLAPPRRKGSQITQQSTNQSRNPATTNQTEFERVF

Set 1 — tested at: 0.1 µM
Structure (SMILES): CS(=O)(=O)N1CCCC(NC(=O)[C@H](CCC2CCCCC2)NC(=O)c2ccc(CNC(=O)c3cnc4ccccn34)cc2)C1 (some centres unmarked)
target	observed	technique	remaining binding
Receptor-type tyrosine-protein kinase FLT3 (FLT3, Homo sapiens, UniProt P36888, D835Y)	cell-free assay	competition with immobilised ligand	100%
Ribosomal protein S6 kinase alpha-5, N-terminal kinase domain (RPS6KA5, Homo sapiens, UniProt O75582)	cell-free assay	competition with immobilised ligand	90%
Phosphatidylinositol 4,5-bisphosphate 3-kinase catalytic subunit alpha isoform (PIK3CA, Homo sapiens, UniProt P42336, M1043I)	cell-free assay	competition with immobilised ligand	37%
Epidermal growth factor receptor (EGFR, Homo sapiens, UniProt P00533, del752-759)	cell-free assay	competition with immobilised ligand	100%
Ephrin type-A receptor 2 (EPHA2, Homo sapiens, UniProt P29317)	cell-free assay	competition with immobilised ligand	100%
MAP/microtubule affinity-regulating kinase 3 (MARK3, Homo sapiens, UniProt P27448)	cell-free assay	competition with immobilised ligand	74%
Ribosomal protein S6 kinase alpha-1, N-terminal kinase domain (RPS6KA1, Homo sapiens, UniProt Q15418)	cell-free assay	competition with immobilised ligand	74%
Serine/threonine-protein kinase MARK1 (MARK1, Homo sapiens, UniProt Q9P0L2)	cell-free assay	competition with immobilised ligand	100%
Phosphatidylinositol 4-phosphate 3-kinase C2 domain-containing subunit beta (PIK3C2B, Homo sapiens, UniProt O00750)	cell-free assay	competition with immobilised ligand	100%
Proto-oncogene tyrosine-protein kinase ROS (ROS1, Homo sapiens, UniProt P08922)	cell-free assay	competition with immobilised ligand	100%
Cyclin-dependent kinase 9 (CDK9, Homo sapiens, UniProt P50750)	cell-free assay	competition with immobilised ligand	100%
Cyclin-dependent kinase 19 (CDK19, Homo sapiens, UniProt Q9BWU1)	–	competition binding	100%
Tyrosine-protein kinase SYK (SYK, Homo sapiens, UniProt P43405)	cell-free assay	competition with immobilised ligand	93%
Ribosomal protein S6 kinase alpha-2, N-terminal kinase domain (RPS6KA2, Homo sapiens, UniProt Q15349)	cell-free assay	competition with immobilised ligand	80%
BMP-2-inducible protein kinase (BMP2K, Homo sapiens, UniProt Q9NSY1)	cell-free assay	competition with immobilised ligand	92%
Leukocyte tyrosine kinase receptor (LTK, Homo sapiens, UniProt P29376)	cell-free assay	competition with immobilised ligand	100%
Tyrosine-protein kinase ABL1, phosphorylated (ABL1, Homo sapiens, UniProt P00519, Q252H)	cell-free assay	competition with immobilised ligand	88%
Dual serine/threonine and tyrosine protein kinase (DSTYK, Homo sapiens, UniProt Q6XUX3)	cell-free assay	competition with immobilised ligand	100%
Megakaryocyte-associated tyrosine-protein kinase (MATK, Homo sapiens, UniProt P42679)	cell-free assay	competition with immobilised ligand	100%
Ephrin type-B receptor 2 (EPHB2, Homo sapiens, UniProt P29323)	cell-free assay	competition with immobilised ligand	100%
Mitogen-activated protein kinase kinase kinase 5 (MAP3K5, Homo sapiens, UniProt Q99683)	cell-free assay	competition with immobilised ligand	100%
Phosphatidylinositol 4,5-bisphosphate 3-kinase catalytic subunit alpha isoform (PIK3CA, Homo sapiens, UniProt P42336, Q546K)	cell-free assay	competition with immobilised ligand	90%

Set 2 — organism: Sarcocystis neurona; observed: parasite growth; tested at: 10 µM; time: 96 h; setting: first screen
Structure (SMILES)	inhibition [%]
CNCCCN1c2ccccc2CCc2ccccc21	-1.7
O=S(=O)(O)CCS	-7.1
OC(Cn1cncn1)(Cn1cncn1)c1ccc(F)cc1F	-3.1
Fc1ccc([C@@H]2CCNC[C@H]2COc2ccc3c(c2)OCO3)cc1	12.6
CN1CC(=O)N2[C@H](c3ccc4c(c3)OCO4)c3[nH]c4ccccc4c3C[C@@H]2C1=O	33.5
CO/N=C(\C(=O)N[C@@H]1C(=O)N2C(C(=O)O)=C(COC(C)=O)CS[C@H]12)c1csc(N)n1	-19.5

Set 3 — observed: enzyme activity; action: inhibitor; tested at: 10 µM
Target: Calcium/calmodulin-dependent protein kinase type II subunit alpha (CAMK2A, Homo sapiens, UniProt Q9UQM7)
Chain of UniProt Q9UQM7 (whole entry, looked up): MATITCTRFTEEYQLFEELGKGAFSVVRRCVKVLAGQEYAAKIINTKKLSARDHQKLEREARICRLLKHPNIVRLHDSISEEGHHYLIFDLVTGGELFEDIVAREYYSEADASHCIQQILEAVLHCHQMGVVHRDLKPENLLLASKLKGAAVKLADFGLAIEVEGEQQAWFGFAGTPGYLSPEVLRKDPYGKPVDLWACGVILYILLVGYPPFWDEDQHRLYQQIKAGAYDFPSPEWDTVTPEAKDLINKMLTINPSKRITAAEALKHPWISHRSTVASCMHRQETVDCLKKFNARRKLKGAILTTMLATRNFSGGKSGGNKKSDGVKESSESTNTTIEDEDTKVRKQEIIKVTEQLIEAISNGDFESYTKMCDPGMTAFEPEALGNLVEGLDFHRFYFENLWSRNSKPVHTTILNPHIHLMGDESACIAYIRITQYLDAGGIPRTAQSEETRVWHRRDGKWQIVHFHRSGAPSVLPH
Structure (SMILES)	inhibition [%]
C=C1CC[C@H]2C[C@@H]1C2(C)C	-17
CCOc1ccc(NC(=O)CC(C)O)cc1 (centres unmarked)	-2
CCCNCC(O)COc1ccccc1C(=O)CCc1ccccc1 (centres unmarked)	5
OCC(O)CN1CCN(c2ccccc2)CC1 (centres unmarked)	1
C[C@@H]1CC[C@@]2(OC1)O[C@H]1C[C@H]3[C@@H]4CC=C5C[C@@H](O[C@@H]6O[C@H](CO)[C@@H](O)[C@H](O)[C@H]6O)CC[C@]5(C)[C@H]4CC[C@]3(C)[C@H]1[C@@H]2C	3
CCCCCCCC[C@H]1O[C@H]1CCCCCCCC(=O)O	-8
CC1=NN(c2ccccc2)C(=O)C1	-8

Set 4 — action: antagonist
Target: Beta-1 adrenergic receptor (ADRB1, Homo sapiens, UniProt P08588)
Chain of UniProt P08588 (whole entry, looked up): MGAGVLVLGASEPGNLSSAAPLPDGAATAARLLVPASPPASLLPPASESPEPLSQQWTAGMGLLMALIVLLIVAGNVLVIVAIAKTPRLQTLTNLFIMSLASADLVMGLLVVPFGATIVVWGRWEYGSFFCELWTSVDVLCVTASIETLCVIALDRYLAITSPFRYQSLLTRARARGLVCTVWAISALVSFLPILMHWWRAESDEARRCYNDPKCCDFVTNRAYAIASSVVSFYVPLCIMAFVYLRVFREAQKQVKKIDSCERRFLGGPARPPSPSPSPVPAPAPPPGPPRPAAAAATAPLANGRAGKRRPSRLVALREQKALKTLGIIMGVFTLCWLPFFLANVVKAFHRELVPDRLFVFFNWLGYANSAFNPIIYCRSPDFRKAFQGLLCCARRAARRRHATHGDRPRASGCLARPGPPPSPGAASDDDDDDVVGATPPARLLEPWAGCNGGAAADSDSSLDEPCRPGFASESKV
SMILES	IC50
O=C1COc2ccc(-c3ccccc3)nc2CN1	≥ 100 µM
COc1ccccc1N1CCN(CC2CN3C(=O)N(C)c4ccccc4C3=N2)CC1 (centres unmarked)	≥ 100 µM
COc1ccccc1N1CCN(C(=O)C[C@@H]2O[C@H](CNC(=O)NC(C)C)[C@@H](O)[C@H]2O)CC1	7.08 µM
O=c1c2nc(-c3cccc(C(F)(F)F)c3)ccc2ncn1Cc1ccccn1	≥ 100 µM
Cc1noc2c(-c3cccnc3N(C)C)cc(-c3ccccc3)nc12	≥ 100 µM
COC(=O)CN1CCN(c2ccccc2OC)CC1	≥ 100 µM
Cc1cnccc1CN(C)Cc1ccc2c(C)cc(=O)oc2c1	≥ 100 µM
O=C(NCCc1ccc(O)c(O)c1)C12CC3CC(CC(C3)C1)C2	≥ 100 µM
COc1cccc(F)c1C(=O)Nc1ccc2ccccc2n1	≥ 100 µM

Excerpt of the above (set 4):
SMILES	IC50
O=C1COc2ccc(-c3ccccc3)nc2CN1	≥ 100 µM
COc1ccccc1N1CCN(CC2CN3C(=O)N(C)c4ccccc4C3=N2)CC1 (centres unmarked)	≥ 100 µM
COc1ccccc1N1CCN(C(=O)C[C@@H]2O[C@H](CNC(=O)NC(C)C)[C@@H](O)[C@H]2O)CC1	7.08 µM
O=c1c2nc(-c3cccc(C(F)(F)F)c3)ccc2ncn1Cc1ccccn1	≥ 100 µM
Cc1noc2c(-c3cccnc3N(C)C)cc(-c3ccccc3)nc12	≥ 100 µM
COC(=O)CN1CCN(c2ccccc2OC)CC1	≥ 100 µM
Cc1cnccc1CN(C)Cc1ccc2c(C)cc(=O)oc2c1	≥ 100 µM
